Experimental data pooled from the literature.
Protocols differ between the studies behind these lines. “And” joins repeats or separate records; there may be more than shown.
ABL1 T315I: Tyrosine-protein kinase ABL1 (ABL1, Homo sapiens, UniProt P00519, T315I)
ABL1 F317L: Tyrosine-protein kinase ABL1 (ABL1, Homo sapiens, UniProt P00519, F317L)
ABL1 E255K: Tyrosine-protein kinase ABL1 (ABL1, Homo sapiens, UniProt P00519, E255K)

| SMILES | target | assay | conditions | scale | measurement | result |
| --- | --- | --- | --- | --- | --- | --- |
| C1=C/COCc2cc(ccc2OCCN2CCCC2)Nc2nccc(n2)-c2cccc(c2)COC/1 | ABL1 T315I | – | 0.1 µM | baseline: DMSO control | remaining binding | 21% |
| Cc1cnn2ncc(-c3ccnc(N(C)C)n3)c2c1 | ABL1 (Homo sapiens, UniProt P00519, Q252H) | KINOMEscan | 1 µM | – | remaining binding | 80% |
| COc1cc(F)ccc1-c1ncnc(Nc2cccc(C[S@](C)(=N)=O)c2)n1 | ABL1 (Homo sapiens, UniProt P00519) | kinase activity | 10 µM, with: 10 µM ATP | – | remaining activity | 36% |
| [2H]c1cc(C)c(NC(=O)c2cnc(Nc3cc(N4CCC(O)CC4)nc(C)n3)s2)c(Cl)c1 | ABL1 T315I | – | 0.001 µM | – | inhibition | < 50% |
| CN(C)c1nccc(-c2cnc3ncccn23)n1 | ABL1 F317L | KINOMEscan | 1 µM | – | remaining binding | 50% |
| CN1CCN(c2ccc(Nc3nccc(-c4ccccc4)n3)cc2C(F)(F)F)CC1 | ABL1 F317L | – | 10 µM | – | percent of control | 64% |
| Cc1nc(Nc2ncc(C(=O)Nc3c(C)cccc3Cl)s2)cc(N2CC[C@H](O)C2)n1 | ABL1 E255K | – | 0.001 µM | – | inhibition | 68% |
| O=C(NC1CCC1)c1ccc2nc(-c3cccc(NS(=O)(=O)NCCN4CCCCC4)c3)cn2c1 | ABL1 (Homo sapiens, UniProt P00519, Y253F) | enzyme activity | 10 µM | – | remaining activity | 86% |
| N[C@@H]1CCN(c2nccc(-c3cnn4ncccc34)n2)C1 | ABL1 (Homo sapiens, UniProt P00519, H396P) | KINOMEscan | 1 µM | – | remaining binding | 78% and 100% |
| [2H]c1cc(C)c(NC(=O)c2cnc(Nc3cc(N4CCCCC4)nc(C)n3)s2)c(Cl)c1 | ABL1 E255K | – | 0.01 µM | – | inhibition | > 90% |
